{"data": "Experimental data of several laboratories", "note": "A part holds a random share of what one study measured."}
{"data": "Sample 1", "target": "Sal-like protein 4, full length isoform B (SALL4, Homo sapiens, UniProt Q9UJQ4-2, residues 1-616)", "technique": "universal PBM", "molecule type": "double-stranded DNA, one strand shown", "medium": "in vitro", "concentration": "not given", "setting": "8-mer, flanks averaged, mean of replicates", "direction": "higher = stronger binding"}
{"Sequence": "AATCCCGT", "E-score": -0.097}
{"Sequence": "AACAATTA", "E-score": 0.357}
{"Sequence": "CTAAATTC", "E-score": 0.122}
{"Sequence": "TGATGGAA", "E-score": 0.129}
{"Sequence": "AGCGAACA", "E-score": 0.0004}
{"data": "Sample 2", "target": "Histone acetyltransferase KAT6A, winged helix 2, GST fusion (KAT6A, Homo sapiens, UniProt Q92794, residues 85-181)", "technique": "protein binding microarray", "molecule type": "double-stranded DNA, one strand shown", "medium": "in vitro", "concentration": "not given", "setting": "8-mer, flanks averaged, mean of 2 arrays, mostly near background", "baseline": "not given", "direction": "higher = stronger binding", "Construct (chain)": "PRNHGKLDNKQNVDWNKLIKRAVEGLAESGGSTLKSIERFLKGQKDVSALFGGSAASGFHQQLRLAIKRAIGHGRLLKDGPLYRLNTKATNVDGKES"}
{"Sequence": "TAGCGTCA", "E-score": -0.0952}
{"Sequence": "CCTTTGCA", "E-score": -0.00304}
{"Sequence": "CACGTTAG", "E-score": -0.211}
{"Sequence": "AGGCGACC", "E-score": 0.0611}
{"Sequence": "AACCCAAG", "E-score": -0.162}
{"data": "Sample 3", "target": "Max dimerization protein 1, bHLH-zipper, MAX partner unstated (MXD1, Homo sapiens, UniProt Q05195, residues 56-136)", "technique": "protein-binding microarray", "molecule type": "double-stranded DNA, one strand shown", "medium": "in vitro", "concentration": "not given", "setting": "k-mer, scored over probes, only values ≥0.25", "direction": "higher = stronger binding", "Target sequence (chain)": "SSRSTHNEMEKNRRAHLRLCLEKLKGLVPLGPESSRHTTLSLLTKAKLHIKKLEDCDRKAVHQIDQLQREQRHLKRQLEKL"}
{"Sequence": "ACCTGTTC", "E-score": 0.289}
{"Sequence": "GATCATGC", "E-score": 0.276}
{"Sequence": "CGTGCGCA", "E-score": 0.354}
{"Sequence": "CAAGCACG", "E-score": 0.324}
{"data": "Further values, each from its own experiment"}
{"Substance": "PhoQ, residues 284 288 289 292 302 303 TNSAEL", "target": "PhoP, residues 12 14 15 18 19 AWHSL (Escherichia coli, UniProt P23836)", "test": "Sort-seq, item: YFP reporter", "test system": "E. coli", "setting": "PhoQ-PhoP variant library, together with: 10 µM Mg2+", "how to read": "baseline: high Mg2+ state, higher = stronger signaling", "endpoint": "fold induction", "result": 1.57}
{"note": "Excerpt of the above (sample 1):"}
{"Sequence": "TGATGGAA", "E-score": 0.129}
